Results collected from several papers.
A part holds a random share of what one study measured. Changes are numbered by the printed parent chain.

Study 1
Molecule: PhoQ, residues 284 288 289 292 302 303 AGHLVA
Technique: Sort-seq
Refers to: YFP reporter
Sample: E. coli
Setting: PhoQ-PhoP variant library
Added: 10 µM Mg2+
Baseline: high Mg2+ state
Reading: higher = stronger signaling
Quantity: fold induction
PhoP, residues 12 14 15 18 19 ICWRQ (Escherichia coli, UniProt P23836): 3.66
PhoP, residues 12 14 15 18 19 VHTVL (Escherichia coli, UniProt P23836): 14.6
PhoP, residues 12 14 15 18 19 TQCLL (Escherichia coli, UniProt P23836): 9.43

Study 2
Target: Sal-like protein 4, full length isoform B (SALL4, Homo sapiens, UniProt Q9UJQ4-2, residues 1-616)
Technique: universal PBM
Molecule type: double-stranded DNA, one strand shown
Sample: in vitro
Concentration: not given
Setting: 8-mer, flanks averaged, mean of replicates
Reading: higher = stronger binding
Quantity: E-score
Target sequence (chain): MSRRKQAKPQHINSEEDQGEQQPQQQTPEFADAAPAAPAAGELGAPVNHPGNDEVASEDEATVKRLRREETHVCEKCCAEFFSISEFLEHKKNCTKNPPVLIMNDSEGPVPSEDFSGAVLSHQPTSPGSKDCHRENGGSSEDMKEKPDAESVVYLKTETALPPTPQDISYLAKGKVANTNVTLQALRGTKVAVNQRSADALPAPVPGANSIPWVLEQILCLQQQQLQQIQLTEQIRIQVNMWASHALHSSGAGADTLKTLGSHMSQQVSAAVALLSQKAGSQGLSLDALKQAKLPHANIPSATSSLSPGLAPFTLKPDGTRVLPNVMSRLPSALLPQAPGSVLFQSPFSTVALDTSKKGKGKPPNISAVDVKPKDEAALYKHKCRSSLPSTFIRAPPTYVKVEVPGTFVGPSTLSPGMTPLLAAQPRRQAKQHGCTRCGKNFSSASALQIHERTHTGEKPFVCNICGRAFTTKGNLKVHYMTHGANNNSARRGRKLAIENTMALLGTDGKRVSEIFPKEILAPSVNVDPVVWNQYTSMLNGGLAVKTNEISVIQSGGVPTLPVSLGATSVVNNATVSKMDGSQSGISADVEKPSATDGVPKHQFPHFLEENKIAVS
AAGACGTG: -0.0739
AGACATTA: 0.158
CCCTATCA: -0.0292
AAGCCTAG: -0.0159
TGAGCGAA: -0.0583
AAGTAGAT: 0.0879
CTTCGAAA: 0.0775
AGCGCATA: 0.186

Study 3
Target: Interferon regulatory factor 7, full length, phosphomimetic (IRF7, Homo sapiens, UniProt Q92985, residues 1-503, S471D/S472D/S475D/S476D/S477D/S483D/S484D/S487D)
Technique: protein-binding microarray
Molecule type: double-stranded DNA, one strand shown
Sample: in vitro
Concentration: 2200 nM top
Setting: 60-bp whole probe
Added: salmon DNA 0.4 mg/ml
Baseline: random background probes
Reading: higher = stronger binding
Quantity: fitted relative affinity
All sequences stand within: GCCTAGCAC … GTGCTAGGTCTTGATTCGCTTGACGCTGCTG
Residues (chain): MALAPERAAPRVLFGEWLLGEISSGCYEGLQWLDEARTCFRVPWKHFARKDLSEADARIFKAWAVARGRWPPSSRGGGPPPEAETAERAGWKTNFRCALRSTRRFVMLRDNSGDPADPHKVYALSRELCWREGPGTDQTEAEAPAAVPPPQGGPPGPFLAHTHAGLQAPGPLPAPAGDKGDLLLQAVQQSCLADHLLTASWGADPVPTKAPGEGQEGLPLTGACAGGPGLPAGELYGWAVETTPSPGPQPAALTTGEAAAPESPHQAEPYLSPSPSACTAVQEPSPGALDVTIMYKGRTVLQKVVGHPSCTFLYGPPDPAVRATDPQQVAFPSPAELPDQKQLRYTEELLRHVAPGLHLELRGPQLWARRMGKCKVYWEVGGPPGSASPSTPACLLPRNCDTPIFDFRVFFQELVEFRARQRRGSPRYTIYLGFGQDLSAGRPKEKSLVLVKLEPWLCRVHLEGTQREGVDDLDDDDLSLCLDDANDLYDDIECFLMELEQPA
TCATTTCTTTTATTAGTACT: 1.83 z-score
GACGATTCCAGTTTAGAGAC: 0.77 z-score
GACGGTCTCGTTTTCGGGAC: 3.74 z-score
GTATTTGTCCCTATTTAAGA: 2.01 z-score
TTAGGACTGCTGCTCCTTTA: 0.129 z-score
TTAGGTTTCCTACTGGTTTA: 1.2 z-score
GACGATATCGGTATCGGGAC: 0.427 z-score
TTAGGTTCCCTTTGCCTTTA: 2.05 z-score

Single results of other studies
Starting sequence: PafA, mature enzyme, eGFP fusion (Elizabethkingia meningoseptica, UniProt Q9KJX5); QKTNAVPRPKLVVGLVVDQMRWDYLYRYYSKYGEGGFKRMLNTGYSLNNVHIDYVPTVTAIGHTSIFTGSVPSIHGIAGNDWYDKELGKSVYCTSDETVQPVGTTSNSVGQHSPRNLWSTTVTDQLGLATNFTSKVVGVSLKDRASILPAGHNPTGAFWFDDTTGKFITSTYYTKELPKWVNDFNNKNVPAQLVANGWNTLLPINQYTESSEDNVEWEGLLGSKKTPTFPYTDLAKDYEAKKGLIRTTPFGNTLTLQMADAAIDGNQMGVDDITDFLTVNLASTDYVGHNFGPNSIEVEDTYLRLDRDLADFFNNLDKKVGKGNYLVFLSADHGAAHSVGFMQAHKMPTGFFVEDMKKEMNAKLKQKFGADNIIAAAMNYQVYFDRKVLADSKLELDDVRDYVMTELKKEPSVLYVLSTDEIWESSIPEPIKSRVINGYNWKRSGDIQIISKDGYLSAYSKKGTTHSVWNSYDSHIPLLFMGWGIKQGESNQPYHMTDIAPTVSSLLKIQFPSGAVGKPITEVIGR
N379G  phosphate dissociation constant (inorganic phosphate, free oxyanion; microfluidic competitive inhibition; in vitro, cell-free expressed; not given, derived from inhibition constants, unchanged parent 615000 nM; lower = stronger binding): 579 µM

Some of these lines once more (study 1):
PhoP, residues 12 14 15 18 19 TQCLL (Escherichia coli, UniProt P23836): 9.43
